{"data": "Assay results of several laboratories", "note": "Each numbered part is a random draw from the data of one study; scales do not carry over between parts.", "sequence of UniProt Q86Z02 (whole entry, looked up)": "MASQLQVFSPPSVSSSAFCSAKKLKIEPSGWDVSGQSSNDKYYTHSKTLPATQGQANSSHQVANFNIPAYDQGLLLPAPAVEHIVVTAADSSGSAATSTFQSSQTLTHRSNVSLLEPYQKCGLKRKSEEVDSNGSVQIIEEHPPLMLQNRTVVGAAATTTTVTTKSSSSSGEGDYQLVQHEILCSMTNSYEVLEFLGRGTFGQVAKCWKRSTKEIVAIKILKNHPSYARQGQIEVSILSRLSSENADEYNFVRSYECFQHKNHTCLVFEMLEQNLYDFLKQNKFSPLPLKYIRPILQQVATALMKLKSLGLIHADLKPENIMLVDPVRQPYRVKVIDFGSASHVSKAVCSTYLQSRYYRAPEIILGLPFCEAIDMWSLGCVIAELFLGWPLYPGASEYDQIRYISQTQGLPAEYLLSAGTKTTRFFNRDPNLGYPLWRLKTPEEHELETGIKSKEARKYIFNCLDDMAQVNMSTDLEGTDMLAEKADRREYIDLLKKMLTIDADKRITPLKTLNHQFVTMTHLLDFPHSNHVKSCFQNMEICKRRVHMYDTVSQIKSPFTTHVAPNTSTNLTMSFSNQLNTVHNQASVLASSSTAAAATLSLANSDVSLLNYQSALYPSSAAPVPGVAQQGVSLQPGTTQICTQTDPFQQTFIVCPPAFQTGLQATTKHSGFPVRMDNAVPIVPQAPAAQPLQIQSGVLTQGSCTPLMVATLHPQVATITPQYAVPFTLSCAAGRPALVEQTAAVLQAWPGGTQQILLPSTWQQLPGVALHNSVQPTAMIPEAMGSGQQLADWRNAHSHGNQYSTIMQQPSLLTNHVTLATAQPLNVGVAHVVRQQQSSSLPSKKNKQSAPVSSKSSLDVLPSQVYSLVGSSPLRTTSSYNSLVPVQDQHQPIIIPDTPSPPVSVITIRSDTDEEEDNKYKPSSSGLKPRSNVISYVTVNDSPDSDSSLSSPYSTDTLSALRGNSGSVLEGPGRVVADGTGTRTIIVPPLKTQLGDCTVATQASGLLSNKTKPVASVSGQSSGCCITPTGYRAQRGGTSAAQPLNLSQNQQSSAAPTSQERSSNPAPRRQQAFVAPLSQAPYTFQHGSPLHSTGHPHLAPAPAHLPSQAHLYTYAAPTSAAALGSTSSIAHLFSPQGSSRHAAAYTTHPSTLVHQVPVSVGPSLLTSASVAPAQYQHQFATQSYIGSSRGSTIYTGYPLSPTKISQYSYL", "sequence of UniProt P45983 (whole entry, looked up)": "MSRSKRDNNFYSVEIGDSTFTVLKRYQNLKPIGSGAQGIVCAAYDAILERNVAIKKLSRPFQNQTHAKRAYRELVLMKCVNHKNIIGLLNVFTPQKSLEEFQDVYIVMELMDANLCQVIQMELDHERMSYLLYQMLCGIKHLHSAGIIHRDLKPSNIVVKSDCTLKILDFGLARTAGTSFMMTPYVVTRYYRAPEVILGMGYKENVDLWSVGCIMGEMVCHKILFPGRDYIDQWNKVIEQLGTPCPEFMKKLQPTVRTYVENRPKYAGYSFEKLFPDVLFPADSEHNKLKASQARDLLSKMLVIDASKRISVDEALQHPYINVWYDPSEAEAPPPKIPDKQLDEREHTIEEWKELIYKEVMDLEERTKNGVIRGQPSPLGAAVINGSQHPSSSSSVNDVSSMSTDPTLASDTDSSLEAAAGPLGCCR", "sequence of UniProt Q8IWQ3 (whole entry, looked up)": "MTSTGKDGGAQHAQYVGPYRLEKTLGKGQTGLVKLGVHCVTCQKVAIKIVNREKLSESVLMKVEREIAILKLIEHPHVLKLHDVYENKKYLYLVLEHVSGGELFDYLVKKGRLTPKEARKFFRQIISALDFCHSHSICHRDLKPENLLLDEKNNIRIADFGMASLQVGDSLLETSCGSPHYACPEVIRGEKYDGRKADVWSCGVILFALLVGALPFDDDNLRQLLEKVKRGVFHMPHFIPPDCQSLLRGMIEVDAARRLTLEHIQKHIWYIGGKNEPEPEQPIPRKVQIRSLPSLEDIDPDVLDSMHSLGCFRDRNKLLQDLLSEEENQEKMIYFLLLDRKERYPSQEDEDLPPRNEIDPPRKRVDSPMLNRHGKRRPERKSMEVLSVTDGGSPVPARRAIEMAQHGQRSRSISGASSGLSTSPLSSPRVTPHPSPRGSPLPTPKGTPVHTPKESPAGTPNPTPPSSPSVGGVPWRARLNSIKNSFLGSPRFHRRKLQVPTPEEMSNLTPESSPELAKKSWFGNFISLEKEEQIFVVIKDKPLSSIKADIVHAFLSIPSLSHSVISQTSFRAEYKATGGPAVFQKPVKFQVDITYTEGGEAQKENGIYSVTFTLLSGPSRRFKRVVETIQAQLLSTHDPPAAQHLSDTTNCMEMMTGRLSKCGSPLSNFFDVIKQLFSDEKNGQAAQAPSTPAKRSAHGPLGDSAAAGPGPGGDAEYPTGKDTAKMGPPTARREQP", "sequence of UniProt Q8NEB9 (whole entry, looked up)": "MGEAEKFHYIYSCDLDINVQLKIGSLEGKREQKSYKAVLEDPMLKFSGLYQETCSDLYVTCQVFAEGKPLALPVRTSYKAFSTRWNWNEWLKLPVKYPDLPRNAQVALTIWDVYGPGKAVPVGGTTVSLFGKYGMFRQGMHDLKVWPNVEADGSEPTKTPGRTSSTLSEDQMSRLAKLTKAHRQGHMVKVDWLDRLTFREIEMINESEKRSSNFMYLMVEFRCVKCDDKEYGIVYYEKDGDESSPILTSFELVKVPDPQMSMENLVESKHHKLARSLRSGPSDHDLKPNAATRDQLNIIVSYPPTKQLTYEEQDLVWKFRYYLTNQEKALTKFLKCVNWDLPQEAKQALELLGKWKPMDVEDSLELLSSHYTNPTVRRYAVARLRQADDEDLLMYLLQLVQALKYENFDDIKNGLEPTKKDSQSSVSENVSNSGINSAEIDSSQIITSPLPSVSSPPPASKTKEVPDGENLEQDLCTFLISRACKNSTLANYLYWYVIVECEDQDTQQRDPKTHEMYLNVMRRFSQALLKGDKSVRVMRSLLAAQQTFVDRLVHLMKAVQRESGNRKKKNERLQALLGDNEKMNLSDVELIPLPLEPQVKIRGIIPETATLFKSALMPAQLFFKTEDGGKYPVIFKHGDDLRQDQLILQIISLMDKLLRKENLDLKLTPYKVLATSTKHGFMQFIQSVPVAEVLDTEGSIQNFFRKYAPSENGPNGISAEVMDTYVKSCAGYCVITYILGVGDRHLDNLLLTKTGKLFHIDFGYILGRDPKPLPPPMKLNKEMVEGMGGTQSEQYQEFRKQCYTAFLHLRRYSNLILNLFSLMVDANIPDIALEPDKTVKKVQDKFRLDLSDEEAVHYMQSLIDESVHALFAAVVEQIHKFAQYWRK", "sequence of UniProt P50613 (whole entry, looked up)": "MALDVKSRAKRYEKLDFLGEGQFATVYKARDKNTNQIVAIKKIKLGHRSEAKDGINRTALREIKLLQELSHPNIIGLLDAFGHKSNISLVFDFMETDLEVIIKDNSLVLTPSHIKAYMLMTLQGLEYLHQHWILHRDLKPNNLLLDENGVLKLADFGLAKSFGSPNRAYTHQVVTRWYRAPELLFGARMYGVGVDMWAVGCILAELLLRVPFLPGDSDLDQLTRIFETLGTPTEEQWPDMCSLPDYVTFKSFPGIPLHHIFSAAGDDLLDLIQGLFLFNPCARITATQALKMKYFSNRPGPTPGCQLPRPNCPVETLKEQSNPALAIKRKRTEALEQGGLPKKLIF"}
{"data": "Set 1", "Compound": "Cc1cc(C)c(-n2ccn3nc(-c4cccnc4)cc23)cc1NC(=O)c1cc(C#N)cc(S(F)(F)(F)(F)F)c1", "observed": "cell-free assay", "method": "competition with immobilised ligand", "tested at": "0.1 µM"}
{"target": "HIPK1 (Homo sapiens, UniProt Q86Z02)", "remaining binding [%]": 61.6}
{"target": "FLT3 (Homo sapiens, UniProt P36888, ITD)", "remaining binding [%]": 100}
{"target": "EGFR (Homo sapiens, UniProt P00533, del747-752/P753S)", "remaining binding [%]": 88.5}
{"target": "DAPK3 (Homo sapiens, UniProt O43293)", "remaining binding [%]": 78.1}
{"target": "CDK7 (Homo sapiens, UniProt P50613)", "remaining binding [%]": 70.1}
{"target": "SGK3 (Homo sapiens, UniProt Q96BR1)", "remaining binding [%]": 81.5}
{"target": "MAPK8 (Homo sapiens, UniProt P45983)", "remaining binding [%]": 76.8}
{"target": "TAOK3 (Homo sapiens, UniProt Q9H2K8)", "remaining binding [%]": 47.1}
{"target": "PIK3CA (Homo sapiens, UniProt P42336, I800L)", "remaining binding [%]": 92.8}
{"target": "HCK (Homo sapiens, UniProt P08631)", "remaining binding [%]": 72.1}
{"target": "NIM1K (Homo sapiens, UniProt Q8IY84)", "remaining binding [%]": 98.9}
{"target": "BRSK2 (Homo sapiens, UniProt Q8IWQ3)", "remaining binding [%]": 97.5}
{"target": "ROCK1 (Homo sapiens, UniProt Q13464)", "remaining binding [%]": 74.9}
{"target": "LATS2 (Homo sapiens, UniProt Q9NRM7)", "remaining binding [%]": 73.2}
{"target": "EPHA1 (Homo sapiens, UniProt P21709)", "remaining binding [%]": 100}
{"target": "PIK3C3 (Homo sapiens, UniProt Q8NEB9)", "remaining binding [%]": 84.9}
{"data": "Set 2", "organism": "Plasmodium berghei", "mode": "inhibitor", "cells": "Huh-7", "strain": "liver stage", "tested at": "10 µM", "time": "24 h", "relative to": "untreated control"}
{"SMILES": "C#C[C@]1(O)CC[C@H]2[C@@H]3CCc4cc(OC)ccc4[C@H]3CC[C@@]21C", "infection rate [%]": 91.9}
{"SMILES": "CO/N=C1\\CN(c2nc3c(cc2F)c(=O)c(C(=O)O)cn3C2CC2)CC1CN (centres unmarked)", "infection rate [%]": 62.5}
{"SMILES": "NC(=O)CC[C@H](N)C(=O)O", "infection rate [%]": 80.5}
{"SMILES": "CCN(CC)C(C)CN1c2ccccc2Sc2ccccc21 (centres unmarked)", "infection rate [%]": 74.1}
{"SMILES": "COC(=O)Nc1nc2cc(C(=O)c3ccccc3)ccc2[nH]1", "infection rate [%]": 78.9}
{"SMILES": "Nc1nc(F)nc2c1ncn2[C@@H]1O[C@H](COP(=O)(O)O)[C@@H](O)[C@@H]1O", "infection rate [%]": 67.7}
{"SMILES": "NNC(=O)c1ccncc1", "infection rate [%]": 123}
{"SMILES": "CCc1cccc2c3c([nH]c12)C(CC)(CC(=O)O)OCC3 (centres unmarked)", "infection rate [%]": 100}
{"data": "Set 3", "target": "Calcium/calmodulin-dependent protein kinase type II subunit alpha (CAMK2A, Homo sapiens, UniProt Q9UQM7)", "observed": "enzyme activity", "mode": "inhibitor", "tested at": "10 µM", "sequence of UniProt Q9UQM7 (whole entry, looked up)": "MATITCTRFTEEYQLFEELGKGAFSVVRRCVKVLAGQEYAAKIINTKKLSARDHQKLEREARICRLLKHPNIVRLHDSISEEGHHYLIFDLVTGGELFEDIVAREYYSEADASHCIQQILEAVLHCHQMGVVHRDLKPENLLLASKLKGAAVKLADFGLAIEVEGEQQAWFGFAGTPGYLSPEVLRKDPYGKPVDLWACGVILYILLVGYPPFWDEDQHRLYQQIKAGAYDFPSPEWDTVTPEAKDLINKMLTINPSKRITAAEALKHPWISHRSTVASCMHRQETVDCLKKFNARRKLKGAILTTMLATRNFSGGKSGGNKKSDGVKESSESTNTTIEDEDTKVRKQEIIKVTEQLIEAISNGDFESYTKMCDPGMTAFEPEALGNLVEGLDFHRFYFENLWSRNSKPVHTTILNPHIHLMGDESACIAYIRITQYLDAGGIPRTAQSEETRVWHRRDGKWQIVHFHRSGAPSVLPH"}
{"Compound": "O=C1C[C@@H](c2ccc(O)cc2)Oc2cc(O[C@@H]3O[C@H](CO)[C@@H](O)[C@H](O)[C@H]3O)cc(O)c21", "inhibition [%]": 11}
{"Compound": "O=C(O)/C=C/c1cnc[nH]1", "inhibition [%]": -1}
{"Compound": "CC(C)=CC(=O)NCC(=O)O", "inhibition [%]": -21}
{"Compound": "O=c1cc(CCc2ccccc2)oc2c1[C@H](O)[C@@H](O)[C@@H](O)[C@@H]2O", "inhibition [%]": -4}
{"Compound": "O=c1cc(-c2ccccc2)c2c(O)cc(O)cc2o1", "inhibition [%]": 2}
{"Compound": "O=C(O)C(O)c1ccc(O)c(O)c1 (centres unmarked)", "inhibition [%]": 5}
{"Compound": "COc1cc(-c2c3c(c(O)c4cc5c(cc24)OCO5)COC3=O)cc(OC)c1OC", "inhibition [%]": -1}
{"data": "Set 4", "Structure (SMILES)": "Oc1ccc(-c2nc(-c3ccncc3)c(-c3ccc(F)cc3)[nH]2)cc1", "observed": "thermal stability", "method": "DSF", "tested at": "10 µM"}
{"target": "Bromodomain-containing protein 3, BD2 (BRD3, Homo sapiens, UniProt Q15059)", "ΔTm [°C]": 0.8}
{"target": "BAZ1B (Homo sapiens, UniProt Q9UIG0)", "ΔTm [°C]": 0.52}
{"target": "ATAD2B (Homo sapiens, UniProt Q9ULI0)", "ΔTm [°C]": 0.15}
{"target": "CREBBP (Homo sapiens, UniProt Q92793)", "ΔTm [°C]": 0.47}
{"target": "Bromodomain adjacent to zinc finger domain protein 2B, bromodomain (BAZ2B, Homo sapiens, UniProt Q9UIF8)", "ΔTm [°C]": 0.12}
{"target": "Bromodomain testis-specific protein, BD2 (BRDT, Homo sapiens, UniProt Q58F21)", "ΔTm [°C]": 0.7}
{"target": "Transcription initiation factor TFIID subunit 1-like, BD2 (TAF1L, Homo sapiens, UniProt Q8IZX4)", "ΔTm [°C]": -0.32}
